{"data": "Experimental data pooled from the literature", "note": "A part holds a random share of what one study measured."}
{"data": "Set 1", "target": "Histone acetyltransferase KAT6A, winged helix 2, GST fusion (KAT6A, Homo sapiens, UniProt Q92794, residues 85-181)", "technique": "protein binding microarray", "molecule type": "double-stranded DNA, one strand shown", "medium": "in vitro", "tested at": "not given", "setting": "8-mer, flanks averaged, mean of 2 arrays, mostly near background", "reference": "not given", "direction": "higher = stronger binding", "Construct (chain)": "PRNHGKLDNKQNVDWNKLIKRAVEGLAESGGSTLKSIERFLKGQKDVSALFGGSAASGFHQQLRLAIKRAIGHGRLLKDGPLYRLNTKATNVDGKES"}
{"Strand": "AACTAGCT", "E-score": 0.102}
{"Strand": "CGGAGCGC", "E-score": 0.236}
{"Strand": "ACGTGCCA", "E-score": -0.168}
{"Strand": "ACTATAGG", "E-score": -0.167}
{"Strand": "CACTCGTA", "E-score": -0.0563}
{"Strand": "CACGTATA", "E-score": -0.239}
{"Strand": "GCCTCGCC", "E-score": 0.208}
{"Strand": "GTTGTTGA", "E-score": 0.0948}
{"Strand": "ACTGTTCG", "E-score": 0.134}
{"Strand": "AGATTTGC", "E-score": -0.0309}
{"Strand": "ATTCCGTA", "E-score": -0.0276}
{"Strand": "AAAATCTC", "E-score": -0.196}
{"Strand": "AGTCCACG", "E-score": -0.127}
{"Strand": "AAATGTCG", "E-score": 0.0328}
{"Strand": "CAGTGGAC", "E-score": 0.0323}
{"Strand": "AATAGTGC", "E-score": 0.0565}
{"Strand": "CCCTGCGA", "E-score": 0.204}
{"Strand": "ATCCCACG", "E-score": -0.00839}
{"Strand": "CGACACCC", "E-score": 0.0698}
{"Strand": "AGGGGCTC", "E-score": 0.0254}
{"Strand": "GCAGACTA", "E-score": 0.0543}
{"Strand": "CAATACAG", "E-score": -0.0516}
{"Strand": "CTAATGCC", "E-score": -0.0747}
{"Strand": "AGGTACGG", "E-score": -0.123}
{"Strand": "GAATTTGC", "E-score": 0.0819}
{"data": "Set 2", "target": "Interferon regulatory factor 7, full length, phosphomimetic (IRF7, Homo sapiens, UniProt Q92985, residues 1-503, S471D/S472D/S475D/S476D/S477D/S483D/S484D/S487D)", "technique": "protein-binding microarray", "molecule type": "double-stranded DNA, one strand shown", "medium": "in vitro", "tested at": "2200 nM top", "setting": "60-bp whole probe", "with": "salmon DNA 0.4 mg/ml", "reference": "random background probes", "direction": "higher = stronger binding", "all sequences stand within": "GCCTAGCAC … GTCTTGATTCGCTTGACGCTGCTG", "Construct (chain)": "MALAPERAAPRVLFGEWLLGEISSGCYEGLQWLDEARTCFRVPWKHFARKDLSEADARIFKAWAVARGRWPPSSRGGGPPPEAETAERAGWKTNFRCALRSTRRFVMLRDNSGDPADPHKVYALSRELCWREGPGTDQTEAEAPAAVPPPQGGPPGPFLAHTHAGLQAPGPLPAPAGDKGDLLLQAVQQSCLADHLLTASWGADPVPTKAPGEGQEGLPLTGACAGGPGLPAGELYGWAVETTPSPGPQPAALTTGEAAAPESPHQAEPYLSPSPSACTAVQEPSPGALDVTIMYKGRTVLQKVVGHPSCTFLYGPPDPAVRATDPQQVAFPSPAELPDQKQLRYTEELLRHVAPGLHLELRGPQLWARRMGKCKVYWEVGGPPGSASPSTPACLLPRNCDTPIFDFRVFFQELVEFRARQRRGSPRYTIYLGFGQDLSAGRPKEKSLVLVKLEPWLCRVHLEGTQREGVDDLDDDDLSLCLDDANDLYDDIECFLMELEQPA"}
{"Strand": "TTAAGACTGGGTTTCGGTTAGTGCTAG", "fitted relative affinity": "4.18 z-score"}
{"Strand": "GACGTTCTCGGTTTCGGGACGTGCTAG", "fitted relative affinity": "4.48 z-score"}
{"Strand": "TTAGCTTTCGGGTTTCGATTAGTGCTA", "fitted relative affinity": "10.3 z-score"}
{"Strand": "TTAGGTTCCGGTTTCGGTCAGTGCTAG", "fitted relative affinity": "5.9 z-score"}
{"Strand": "TTAGGACTGTGACTGGGTTAGTGCTAG", "fitted relative affinity": "-0.219 z-score"}
{"Strand": "TCAATTAGAATTTTCATACTGTGCTAG", "fitted relative affinity": "0.414 z-score"}
{"Strand": "TAAAGCATTACTTTAGGTTCGTGCTAG", "fitted relative affinity": "0.793 z-score"}
{"Strand": "TTAGGTCTCCTTATCCGTTAGTGCTAG", "fitted relative affinity": "0.991 z-score"}
{"Strand": "CCATCTCTCAAAAGTCACCCTGTGCTA", "fitted relative affinity": "0.763 z-score"}
{"Strand": "GAAGGTATCGGTATCGGGACGTGCTAG", "fitted relative affinity": "0.317 z-score"}
{"Strand": "TCATGCTTGTGTTTATTACTGTGCTAG", "fitted relative affinity": "1.16 z-score"}
{"Strand": "TCTGACCCCCTGCGCGGCAGGTGCTAG", "fitted relative affinity": "-0.454 z-score"}
{"Strand": "GACGAACTGAGACTGGAGGCGTGCTAG", "fitted relative affinity": "-0.428 z-score"}
{"Strand": "GACGGTTACGACTTTCGGGACGTGCTA", "fitted relative affinity": "2.99 z-score"}
{"data": "Set 3", "target": "PABPC1L2, full length, GST fusion (mouse, UniProt A0ABA7IW68)", "technique": "RNAcompete", "molecule type": "RNA", "medium": "in vitro", "tested at": "20 nM", "setting": "7-mer, probes averaged, single round", "reference": "mean of 7-mers", "direction": "higher = stronger binding", "Target sequence (chain)": "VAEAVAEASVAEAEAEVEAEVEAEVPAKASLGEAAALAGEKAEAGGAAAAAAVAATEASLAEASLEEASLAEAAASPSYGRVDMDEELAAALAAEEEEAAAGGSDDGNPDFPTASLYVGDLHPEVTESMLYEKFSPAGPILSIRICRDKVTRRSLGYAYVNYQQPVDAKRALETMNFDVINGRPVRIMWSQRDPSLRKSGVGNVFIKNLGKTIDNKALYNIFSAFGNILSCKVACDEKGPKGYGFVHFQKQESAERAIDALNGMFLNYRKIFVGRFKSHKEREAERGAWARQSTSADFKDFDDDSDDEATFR"}
{"Strand": "GUCAUUU", "7-mer Z-score": -0.246}
{"Strand": "UCGGGGC", "7-mer Z-score": 0.0714}
{"Strand": "ACUAAUG", "7-mer Z-score": -0.171}
{"Strand": "CUGCACU", "7-mer Z-score": -0.177}
{"Strand": "ACGUCAC", "7-mer Z-score": -0.228}
{"Strand": "AUCCUAA", "7-mer Z-score": -0.103}
{"Strand": "GGGUGGG", "7-mer Z-score": 0.244}
{"Strand": "UUACGGA", "7-mer Z-score": 0.00798}
{"Strand": "AUGAAGU", "7-mer Z-score": -0.166}
{"Strand": "GACGUCG", "7-mer Z-score": -0.235}
{"Strand": "CACGAGA", "7-mer Z-score": 0.175}
{"Strand": "UGUACUA", "7-mer Z-score": -0.191}
{"Strand": "UUGAUUU", "7-mer Z-score": -0.142}
{"Strand": "CUAAAUU", "7-mer Z-score": 0.441}
{"Strand": "UCUGAUC", "7-mer Z-score": -0.298}
{"Strand": "AUAAUCC", "7-mer Z-score": -0.115}
{"Strand": "CUGUUGG", "7-mer Z-score": -0.427}
{"Strand": "CCUGACU", "7-mer Z-score": -0.364}
{"Strand": "AAAACCU", "7-mer Z-score": 2.31}
{"Strand": "GUUCUUC", "7-mer Z-score": -0.465}
{"Strand": "AGCUCAA", "7-mer Z-score": -0.0573}
{"Strand": "UGGCAGG", "7-mer Z-score": 0.0932}
{"Strand": "GCCUAGC", "7-mer Z-score": -0.271}
{"Strand": "GGUAACA", "7-mer Z-score": 0.298}
{"Strand": "GUAAAAA", "7-mer Z-score": 11.5}
{"data": "Set 4", "target": "Hepatocyte nuclear factor 3-beta, forkhead domain (FOXA2, Homo sapiens, UniProt Q9Y261, residues 142-269)", "technique": "protein-binding microarray", "molecule type": "double-stranded DNA, one strand shown", "medium": "in vitro", "tested at": "not given", "setting": "k-mer, scored over probes, only values ≥0.25", "direction": "higher = stronger binding", "Target sequence (chain)": "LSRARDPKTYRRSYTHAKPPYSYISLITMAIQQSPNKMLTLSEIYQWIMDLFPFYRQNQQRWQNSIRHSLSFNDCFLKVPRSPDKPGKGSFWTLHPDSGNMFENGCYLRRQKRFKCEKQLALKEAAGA"}
{"Strand": "GTTATTTA", "E-score": 0.323}
{"Strand": "ACATCAAT", "E-score": 0.324}
{"Strand": "AATTTCCA", "E-score": 0.267}
{"Strand": "ACTGAATA", "E-score": 0.287}
{"Strand": "AATGTGAT", "E-score": 0.302}
{"Strand": "TAAACATA", "E-score": 0.327}
{"Strand": "AGTTCATA", "E-score": 0.305}
{"Strand": "TCGGTAAA", "E-score": 0.279}
{"Strand": "TAATATAA", "E-score": 0.354}
{"Strand": "ATATGTAA", "E-score": 0.296}
{"Strand": "ATATGTCA", "E-score": 0.27}
{"Strand": "CTATCACA", "E-score": 0.26}
{"Strand": "AAATAGAT", "E-score": 0.284}
{"Strand": "ACTCTTAC", "E-score": 0.273}
{"Strand": "TAATATTA", "E-score": 0.357}
{"Strand": "CAATAATA", "E-score": 0.32}
{"Strand": "AACTATTA", "E-score": 0.253}
{"Strand": "AAATGTGG", "E-score": 0.289}
{"Strand": "ATTGTTGG", "E-score": 0.298}
{"Strand": "CTATAAAC", "E-score": 0.274}
{"Strand": "TAAAGTCA", "E-score": 0.262}
{"Strand": "AAACTACA", "E-score": 0.28}
{"Strand": "TAATACCA", "E-score": 0.285}
{"Strand": "TAGTTGAA", "E-score": 0.257}
{"Strand": "TATACAAA", "E-score": 0.394}
{"data": "Set 5", "target": "Ras GTPase-activating protein-binding protein 1, RRM domain (G3BP1, Homo sapiens, UniProt Q13283)", "technique": "RNA Bind-n-Seq", "molecule type": "RNA", "medium": "in vitro", "tested at": "1 µM", "setting": "whole 134-nt RNA, ends assumed", "with": "150 mM KCl", "reference": "input library", "direction": "higher = stronger binding", "all sequences stand within": "GGGAGUUCUACAGUCCGACGAUC … UGGAAUUCUCGGGUGUCAAGG", "UniProt Q13283, sequence (whole entry, looked up)": "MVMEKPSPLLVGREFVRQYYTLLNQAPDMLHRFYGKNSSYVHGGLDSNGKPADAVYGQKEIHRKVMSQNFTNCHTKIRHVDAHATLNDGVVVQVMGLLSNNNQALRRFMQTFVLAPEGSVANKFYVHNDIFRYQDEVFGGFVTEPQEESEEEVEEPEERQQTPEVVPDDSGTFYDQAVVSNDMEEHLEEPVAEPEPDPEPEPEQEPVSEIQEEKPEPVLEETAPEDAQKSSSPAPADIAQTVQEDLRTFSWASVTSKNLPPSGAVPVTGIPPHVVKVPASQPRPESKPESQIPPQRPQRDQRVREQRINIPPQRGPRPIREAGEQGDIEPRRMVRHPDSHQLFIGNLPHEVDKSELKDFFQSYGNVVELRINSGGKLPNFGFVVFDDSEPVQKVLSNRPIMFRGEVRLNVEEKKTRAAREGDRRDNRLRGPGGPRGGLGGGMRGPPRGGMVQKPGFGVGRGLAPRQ"}
{"Strand": "CUCAAGUCCUGUGCUACACAUCGUAUGUACCGAAUCGGGAAAGGGUGGGAGGGAAAGUAUUAUGUUACGCCGUUCGGAUCUGCACUUCCA", "log2 enrichment": 0.757}
{"Strand": "AAGUCCUGUGCUACACAUCGUAUGUACCGAAUCGGGGCCCGGGGCCCGGGGCCCGGGAAAGUAUUAUGUUACGCCGUUCGGAUCUGCACU", "log2 enrichment": -1.69}
{"Strand": "UGGAUCUUGGAGGGACCAACUUCCGUGUGCUUUGGGUGAAAGUAACGGACAAUGGGCUCCAGAAGGUGGAGAUGGAGAAUCAGAUCUAUG", "log2 enrichment": -0.225}
{"Strand": "GCAGCAAGUAAAAACAAAUGGAAAUGCUUCGGAUAGUGGCAGGGGUGGGGGUUGCUAAGGAAAGGGUGGGAUGGGAGUGGGUAAAGAGUU", "log2 enrichment": 1.19}
{"Strand": "GUGCUACACAUCGUAUGUACCGAAUCGGGGUUUUUUUGGGGAAAAAAAGGGGUUUUUUUGGGGAAAGUAUUAUGUUACGCCGUUCGGAUC", "log2 enrichment": 1.05}
{"Strand": "CUCAAGUCCUGUGCUACACAUCGUAUGUACCGAAUCGGUUGGGUUGGUUGGGGAAAGUAUUAUGUUACGCCGUUCGGAUCUGCACUUCCA", "log2 enrichment": -0.152}
{"Strand": "UCAGGUCCUUAAGUACCUUCGUAUUACUUUUAGCAGGAAAAACGGCAUGUUUUGCAUCUGGUGUGCAAUGUGAAGAGUCCUUCAAAAAUG", "log2 enrichment": -0.22}
{"Strand": "CAAGUCCUGUGCUACACAUCGUAUGUACCGAAUCGGAAAAAGGUUUUUUUGGUGGAAAGUAUUAUGUUACGCCGUUCGGAUCUGCACUUC", "log2 enrichment": -0.319}
{"Strand": "UUCCUCAAGUCCUGUGCUACACAUCGUAUGUACCGAAUCGGAGGUGGUGGAAAGUAUUAUGUUACGCCGUUCGGAUCUGCACUUCCAGCA", "log2 enrichment": -0.325}
{"note": "Some of these lines once more (set 3):"}
{"Strand": "GACGUCG", "7-mer Z-score": -0.235}
{"Strand": "CACGAGA", "7-mer Z-score": 0.175}
{"Strand": "UGUACUA", "7-mer Z-score": -0.191}
{"Strand": "UUGAUUU", "7-mer Z-score": -0.142}
{"Strand": "CUAAAUU", "7-mer Z-score": 0.441}
{"Strand": "UCUGAUC", "7-mer Z-score": -0.298}
{"Strand": "AUAAUCC", "7-mer Z-score": -0.115}
{"Strand": "CUGUUGG", "7-mer Z-score": -0.427}
{"Strand": "CCUGACU", "7-mer Z-score": -0.364}
{"Strand": "AAAACCU", "7-mer Z-score": 2.31}
{"Strand": "GUUCUUC", "7-mer Z-score": -0.465}
{"Strand": "AGCUCAA", "7-mer Z-score": -0.0573}
{"Strand": "UGGCAGG", "7-mer Z-score": 0.0932}
{"Strand": "GCCUAGC", "7-mer Z-score": -0.271}
